Measured values collected from several papers.
Each numbered part is a random draw from the data of one study; scales do not carry over between parts. Positions count from the first letter of the parent shown.

Set 1 — target: UBE2J1 UBC core domain (UniProt Q9Y385); technique: yeast two-hybrid; sample: yeast; notes: mostly zero background; relative to: not given; reading: higher = stronger interaction
B1: TRIM43 RING domain (UniProt Q96BQ3); chain FSHAFQKELTCVICLNYLVDPVTICCGHSFCRPCLCLSWEEAQSPANCPACREPSPKMDFKT
B2: RNF111 RING domain (UniProt Q6ZNA4); chain EGTEEDTEEKCTICLSILEEGEDVRRLPCMHLFHQVCVDQWLITNKKCPICRVDIEAQLPSE
B3: TRIM5 RING domain (UniProt Q9C035); chain ILVNVKEEVTCPICLELLTQPLSLDCGHSFCQACLTANHKKSMLDKGESSCPVCRISYQPENIRP
B4: TRIM5 RING domain (UniProt Q9C035); chain LREVKLSPEGQKVDHCARHGEKLLLFCQEDGKVICWLCERSQEHRGHHTFLTEEVAREYQVKL
B5: TRIM24 RING domain (UniProt O15164); chain EAARLNLLDTCAVCHQNIQSRAPKLLPCLHSFCQRCLPAPQRYLMLPAPMLGSAETPPPVPAPGSPVSGSSPFATQVGVIRCPVCSQECAERHII
B6: TRIML1 RING domain (UniProt Q8N9V2); chain LMENLREELTCFICLDYFSSPVTTECGHSFCLVCLLRSWEEHNTPLSCPECWRTLEGPHFQS
B7: DTX4 RING domain (UniProt Q9Y2E6); chain QKVRHPPDEDCTICMERLTAPSGYKGPQPTVKPDLVGKLSRCGHVYHIYCLVAMYNNGNKDGSLQCPTCKTIYGVKTGTQ
B8: RNF38 RING domain (UniProt Q9H0F5); chain PNNHQSEQTLCVVCMCDFESRQLLRVLPCNHEFHAKCVDKWLKANRTCPICRADASEVHRDS
B9: NEURL1 RING domain (UniProt O76050); chain VTPGLGQWSDECTICYEHAVDTVIYTCGHMCLCYACGLRLKKALHACCPICRRPIKDIIKT
Residues (chain): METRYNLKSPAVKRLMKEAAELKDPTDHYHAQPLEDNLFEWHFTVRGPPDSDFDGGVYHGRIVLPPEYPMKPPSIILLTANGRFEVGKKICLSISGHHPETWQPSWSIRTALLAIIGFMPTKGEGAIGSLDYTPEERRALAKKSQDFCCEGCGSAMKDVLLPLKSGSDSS
Sequence | lacZ reporter activity
B1 (TRIM43 RING domain) | 0
B2 (RNF111 RING domain) | 0
B3 (TRIM5 RING domain) | 0
QVDKAVFHMQSVKCLKCQEQKRAVLPCQHAALCELCAEGSECPICQPGRAHTLQS (UNK RING domain (UniProt Q9C0B0)) | 0
B4 (TRIM5 RING domain) | 0
B5 (TRIM24 RING domain) | 0
B6 (TRIML1 RING domain) | 0
B7 (DTX4 RING domain) | 0
B8 (RNF38 RING domain) | 0
B9 (NEURL1 RING domain) | 0
GAAPGPEAAECLVCSELALLVLFSPCQHRTVCEECARRMKKCIRCQVVVSKKLRPD (MIB2 RING domain (UniProt Q96AX9)) | 0

Set 2 — target: JDP2, bZIP domain (human); technique: DHFR protein complementation; sample: yeast; relative to: wild-type JUN-FOS pair; reading: higher = stronger binding
Notes: single substitutions, most at no-binding floor
Parent: JUN, bZIP domain (human); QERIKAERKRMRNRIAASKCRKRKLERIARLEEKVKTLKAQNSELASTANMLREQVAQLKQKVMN; partner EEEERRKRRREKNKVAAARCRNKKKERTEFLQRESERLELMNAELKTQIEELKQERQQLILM
Change | binding fitness [natural log]
S47M | 0.264
E44Q | 0.262
N42P | -1.32
A49N | 0.0266
K36E | 0.315
E44T | 0.205
S47V | 0.353
V56Q | -0.449
L38A | 0.264
L52M | 0.15
E44W | 0.111
A46H | 0.227
A57E | 0.287
V56W | -0.612
T48K | 0.262
E32M | 0.248
A29T | 0.22
M51N | 0.379

Set 3 — technique: RNA Bind-n-Seq; molecule type: RNA; sample: in vitro; concentration: 365 nM; relative to: no-protein control; reading: higher = stronger binding
Target: RNA binding protein fox-1 homolog 2, RRM domain, GST-SBP tag (RBFOX2, Homo sapiens, UniProt O43251-10, residues 100-194)
Notes: natural RNA segment, single round, ends assumed
Constant ends, left off below: GGGAGUUCUACAGUCCGACGAUC … UGGAAUUCUCGGGUGCCAA
Construct (chain): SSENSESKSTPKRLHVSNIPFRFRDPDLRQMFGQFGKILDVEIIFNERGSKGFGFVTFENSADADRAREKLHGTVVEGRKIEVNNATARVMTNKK
Sequence | RBNS enrichment (R)
AUAAGAAAUCUCACACUGAGAUAGAAUUGUGAUUUCAUAAUAACACUUGAAAAGUGCUGGAGUAACAAAAUAUCUCAGUUGGACCAUCCUUAACUUGAUUGAACUGUCUA | 0.273
CAUCAUGUUGGGCUCCUAGAUUGUACUGGGGUUGCCCAUAAAUCAAACCCCAUACUCUUAGAAUUCAUUAUAUUAUGGUGAUAUCCGAACCUAGUGAAUGGUAUGCUUGG | 0.439
CUGUGAUUAAAAUCUUUAAGCAUUUGUUCCUGCCAAGGUAGUUUUCUUGCAUUUUGCUCUCCAUUCAGCAUGUGUGUGGGUGUGGAUGUUUAUAAACAAGACUAAGUCUG | 14.2
UGGGAAUGUCCCCUGCCCCAACCAUCGGGUGGAGCUCCUGCUGGGCUAUGGGGAAGGGAGGUUGUGCGGAUCUUGACUCUAGGGCAGAACAGAUCUAACCAUGCAUUGCU | 1.91
AGGGUCUGUUUUGGUCAAAUCUUGAAUUUCGUUGUUGCACUCUAGUGACUGAUCUUUGGGAAUGUCUUGUCUUUGCAUGGGGCUCAUAGAGAUGUGUGCAGACUUGCUUA | 3.91
UUGCACCAAGAAGACAGCCUGAUAGCCCGACAGUUCUGAACUGGAACAUGGGCAUUGGGUUCUAAAGGACUAACAUAAAAUCUGUGAAUUAAAAAAGCUCAAUGCAUUGU | 0.297
GAUGGGGCGGGAGGGCCAGACUCAGUGCUGCUGUGGAGCUAGGUGCUUCCCCCUUCCCCUGAGACUGGUGGACUGAACUCCAGUCAAGUUGAGUUCAAGUGAAAGAUUCU | 0.411
UAGUGUGCCAGCACAGGCCAGACAUACUAGUGAGCCAGGCACAUCUGGCCUUGGGAAACUCAUCCUACAGGGGAAGGCCAGUUUUUUUCCCUUCAAUUCCUCAAGUCUGG | 0.458
GGCAUUAAACAGCCACCAUCGCAUAGAACCUUCCCUGUAACCCAGACAUUGUCAAGGAAGAUAUACGUAGAGGAUCUUAACUGACUCACAGGAAGCACUUGUCCCCCCUG | 0.366
GUUUUGAGACUGGGUUUCAUUCUGUAGCCCAGGCUAGCCCUGAACUUGUUACAGUGUCCUUUUUUUCUCAGCUUCAGGAUUAUGGACAUAGAUCUCCACACCUGGCUUGU | 0.374
GGUGAUGACGUCAGUCUAAUGAGUUGUUAGGUCACUUGGGAAGGGGAAGAAAUUUAAAUGGGGGAAAAUAAGCCAUCUUUUUAAACAAAAAUUAUUUUACCUACAGAGAG | 0.566
GGAAGGCACUCAGGCUUUCGUUGGAGAAACAGAAAUAAGGCCUUCUUUUGAGCAGCGAUUGCUGGAUCAUUGAUCUGUUUGAGGAAGUGUCUGACCUGGGCCUGAGAGCU | 0.854

Set 4 — technique: protein binding microarray; molecule type: double-stranded DNA, one strand shown; sample: in vitro; concentration: not given; relative to: not given; reading: higher = stronger binding
Target: Histone acetyltransferase KAT6A, both winged helices, GST fusion (KAT6A, Homo sapiens, UniProt Q92794, residues 1-181)
Notes: 8-mer, flanks averaged, mean of 2 arrays, mostly near background
Target sequence (chain): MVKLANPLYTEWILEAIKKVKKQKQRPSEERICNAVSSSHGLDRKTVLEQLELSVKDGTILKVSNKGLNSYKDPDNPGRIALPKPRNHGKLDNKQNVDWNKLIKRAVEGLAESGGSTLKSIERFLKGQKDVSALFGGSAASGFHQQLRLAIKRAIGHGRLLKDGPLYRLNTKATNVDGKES
Sequence | E-score
CGCTGACG | 0.249
GACATCCA | -0.127
GTATAGCA | -0.0537
ATATCAAT | -0.00071
CTTGAAAG | -0.14
ATGTCGTG | -0.112
ATCGCATG | -0.027
GACAGACA | 0.0233
GATGCCAA | -0.158
CGTAGAGA | 1.5e-05
CACGACGC | 0.143
AGCGCAAC | 0.241
GATGAGTA | -0.27
ACGACCTC | -0.05
ACATCTAT | 0.0355
GCTCGTCC | -0.0658
AGAACCTA | -0.108
ACGAACGT | 0.0361
ATCCGCGG | 0.319
AGTGATAA | -0.0469
GGCGTGAC | 0.0736

Set 5 — technique: DHFR PCA, deep sequencing; sample: yeast; added: (+)-ABA 0.11 µM; relative to: wild-type fitted maximum; reading: higher = stronger binding
Target: ABI1, truncated, D143A, DHFR fusion (Arabidopsis thaliana)
Notes: methotrexate growth selection, single substitutions
Parent: PYL1, truncated, DHFR fusion (Arabidopsis thaliana); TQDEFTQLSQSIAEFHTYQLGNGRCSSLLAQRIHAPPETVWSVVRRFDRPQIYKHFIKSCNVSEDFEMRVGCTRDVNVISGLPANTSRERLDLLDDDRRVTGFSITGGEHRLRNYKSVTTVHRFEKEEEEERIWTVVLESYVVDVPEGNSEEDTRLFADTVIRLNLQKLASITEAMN; partner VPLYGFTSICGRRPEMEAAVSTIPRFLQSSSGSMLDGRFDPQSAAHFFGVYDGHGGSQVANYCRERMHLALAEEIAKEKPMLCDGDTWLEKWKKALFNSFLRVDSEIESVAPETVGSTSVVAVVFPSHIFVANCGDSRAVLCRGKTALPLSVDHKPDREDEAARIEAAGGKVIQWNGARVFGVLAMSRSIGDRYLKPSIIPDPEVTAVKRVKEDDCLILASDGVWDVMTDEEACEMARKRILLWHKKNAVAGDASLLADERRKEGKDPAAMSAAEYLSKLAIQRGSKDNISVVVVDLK
Change | relative binding score
Y18G | 2.19%
Q2A | 48.3%
S27L | 2.11%
E152M | 7.86%
E128R | 22.9%
G107Q | 16.8%
G102Q | -2.94%
V145F | -18.3%
T135H | -7.14%
S9K | 63.4%
A170W | -7.22%
A35N | -2.55%
Y115N | 1.27%
F15V | 0.321%

Other studies, line by line
Sequence | target | test | test system | setting | how to read | quantity | result
GSPAKKLFTSTGL | Cln2 (Saccharomyces cerevisiae) | peptide binding, competitive growth sequencing | peptide, Saccharomyces cerevisiae, unfused Cln2 strain | mutational scanning library 1 | direction not given | enrichment score | 0.423

Some of these lines once more (set 4):
Sequence | E-score
ATCCGCGG | 0.319
GACATCCA | -0.127
CTTGAAAG | -0.14
AGTGATAA | -0.0469
ACGACCTC | -0.05
GACAGACA | 0.0233
GCTCGTCC | -0.0658
GATGCCAA | -0.158
CGTAGAGA | 1.5e-05
